Measurements pooled from the literature.
Protocols differ between the studies behind these lines. In brackets after ≈: the same amount, converted by molar mass.
Organism: Enterococcus faecalis

With `CN[C@H](CC(C)C)C(=O)N[C@H]1C(=O)N[C@@H](CC(N)=O)C(=O)N[C@H]2C(=O)N[C@H]3C(=O)N[C@H](C(=O)N[C@H](C(=O)O)c4cc(O)cc(O)c4-c4cc3ccc4O)[C@H](O)c3ccc(c(Cl)c3)Oc3cc2cc(c3O[C@@H]2O[C@H](CO)[C@@H](O)[C@H](O)[C@H]2O[C@H]2C[C@](C)(N)[C@H](O)[C@H](C)O2)Oc2ccc(cc2Cl)[C@H]1O` the MIC50 was 2 µg/mL (≈ 1.38 µM) (compound-intermediate; pH 7.0).
Under “number of isolates”, `Cc1c2c(nn1C)CSCc1cc(n(C)n1)CSc1cc(c3ccccc3c1)OCCCc1c(C(=O)O)n(C)c3c-2c(Cl)ccc13` is recorded as 17 (broth microdilution MIC; 25 µM).
For `C=C[C@]1(C)C[C@@H](OC(=O)CS[C@@H]2C[C@H]3CC[C@@H](C2)N3C)[C@]2(C)[C@H](C)CC[C@]3(CCC(=O)[C@H]32)[C@@H](C)[C@@H]1O`, the MIC90 was > 128 µg/mL (agar dilution; vancomycin-intermediate; 20 isolates).
The MIC50 of `CN[C@H](CC(C)C)C(=O)N[C@H]1C(=O)N[C@@H](CC(N)=O)C(=O)N[C@H]2C(=O)N[C@H]3C(=O)N[C@H](C(=O)N[C@H](C(=O)O)c4cc(O)cc(O)c4-c4cc3ccc4O)[C@H](O)c3ccc(c(Cl)c3)Oc3cc2cc(c3O[C@@H]2O[C@H](CO)[C@@H](O)[C@H](O)[C@H]2O[C@H]2C[C@](C)(N)[C@H](O)[C@H](C)O2)Oc2ccc(cc2Cl)[C@H]1O` is reported as 1 µg/mL (≈ 0.69 µM) (ATCC 29212; 1 strain).
With `Cc1ccc2[nH]nc(-c3nnc(Nc4ccc(O)cc4)s3)c2c1` the MIC was 3.9 µg/mL (≈ 12.1 µM) (ATCC 2942).
The MBC of `O=C(O)CN(CCN(CC(=O)O)CC(=O)O)CC(=O)O` is reported as > 2000 µM (OG1RF; 24 h).
For `O=C(O)c1ccc(-n2cc(CNc3cc(Br)cc(C(F)(F)F)c3)c(-c3ccc(F)c(F)c3)n2)cc1`, the MBEC was 2 × MIC (ATCC 29212; biofilm, Calgary device).
For `c1ccc(CN(CCN(Cc2ccccn2)Cc2ccccn2)Cc2ccccn2)nc1`, the MBC was 500 µM (≈ 212 µg/mL) (Calgary Biofilm Device; OG1RF, biofilm; 24 h).
With `O=C(O)c1ccc(-n2cc(CNc3cc(Br)cc(C(F)(F)F)c3)c(-c3cccc(F)c3)n2)cc1` the MBEC was 4 × MIC (ATCC 29212; biofilm, Calgary device).
`Cc1ccc2[nH]nc(-c3nnc(Nc4ccc(Cl)cc4)s3)c2c1` has an MIC of 32.8 µg/mL (≈ 96 µM) (ATCC 2942).
`CN(C)[C@@H]1C(O)=C(C(N)=O)C(=O)[C@@]2(O)C(O)=C3C(=O)c4c(O)c(N)nc(F)c4C[C@H]3C[C@@H]12.Cl.Cl` gave an MIC of 0.5 µg/mL (broth microdilution CLSI; ATCC 29212).
`CC(=O)NC[C@H]1CN(c2ccc(N3CCOCC3)c(F)c2)C(=O)O1` gave an MIC50 of 2 µg/mL (≈ 5.93 µM) (vancomycin-intermediate, 10 isolates; serum 0%).
The MIC of `Cc1ccc2[nH]nc(-c3nnc(Nc4ccc(F)cc4Cl)s3)c2c1` is reported as 3.2 µg/mL (≈ 8.89 µM) (ATCC 2942).

Repeated from above:
`Cc1ccc2[nH]nc(-c3nnc(Nc4ccc(Cl)cc4)s3)c2c1` has an MIC of 32.8 µg/mL (≈ 96 µM) (ATCC 2942).
`CN(C)[C@@H]1C(O)=C(C(N)=O)C(=O)[C@@]2(O)C(O)=C3C(=O)c4c(O)c(N)nc(F)c4C[C@H]3C[C@@H]12.Cl.Cl` gave an MIC of 0.5 µg/mL (broth microdilution CLSI; ATCC 29212).
